Experimental data gathered from unrelated publications.
Parts stem from different laboratories: compare values within a part only.

Sample 1
Target: Histone acetyltransferase KAT6A, both winged helices, GST fusion (KAT6A, Homo sapiens, UniProt Q92794, residues 1-181)
Technique: protein binding microarray
Form: double-stranded DNA, one strand shown
Sample: in vitro
Tested at: not given
Notes: 8-mer, flanks averaged, mean of 2 arrays, mostly near background
Baseline: not given
Reading: higher = stronger binding
Target sequence (chain): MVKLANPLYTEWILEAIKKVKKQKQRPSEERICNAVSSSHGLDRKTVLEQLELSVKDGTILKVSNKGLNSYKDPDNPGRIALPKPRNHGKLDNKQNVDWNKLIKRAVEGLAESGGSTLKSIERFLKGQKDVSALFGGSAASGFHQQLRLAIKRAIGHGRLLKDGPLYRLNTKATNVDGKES
Sequence | E-score
CAATGCTC | -0.09
AAAGGGTG | -0.126
AGCTTCCA | -0.0919
AACTTCCT | -0.163
GCACCAGC | -0.0305
TATGCTAA | -0.207
TGACCTCA | -0.137
ACTGCGGG | 0.117
ATCATCCG | 0.0709
TATCCAAA | -0.0297
ACACTAGC | -0.00102
CCACCGCA | 0.0669
AGGTTACC | 0.047
ACGATAAC | 0.0103
ATGGGGAG | -0.233
CGGACCCC | 0.125
AAGATCCT | -0.0933
CCAGAGCC | -0.0873
ATATGCAA | 0.0123
CACGAATA | -0.146

Sample 2
Target: RNA binding protein fox-1 homolog 2, RRM domain, GST-SBP tag (RBFOX2, Homo sapiens, UniProt O43251-10, residues 100-194)
Technique: RNA Bind-n-Seq
Form: RNA
Sample: in vitro
Tested at: 365 nM
Notes: natural RNA segment, single round, ends assumed
Baseline: no-protein control
Reading: higher = stronger binding
Target sequence (chain): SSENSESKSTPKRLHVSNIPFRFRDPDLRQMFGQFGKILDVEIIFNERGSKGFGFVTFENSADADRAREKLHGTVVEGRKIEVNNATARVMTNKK
Sequence | RBNS enrichment (R)
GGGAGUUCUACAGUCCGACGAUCAUGCUGGUAAAGAAAAGGGAUUCAACUGUCUCUUUUCCAAAUAAAAAAAAAGUCAAAAUUUCAAGUGAGAGAAAAUGACACCCCCAACUUUUACCAGUUCUUCCUCACCUUGGAAUUCUCGGGUGCCAA | 0.343
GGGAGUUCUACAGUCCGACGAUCUUUUAAAUGUCUAUAUCUUUUAUUAUAGAGAAACCAUUAGAUCCAAUAAAUGAAGAAAUACAUUUUAAGUAGAUAUCAGUUACUUUUAAUUUGUAUGGUAAAUAUAUACAUGGAAUUCUCGGGUGCCAA | 0.473
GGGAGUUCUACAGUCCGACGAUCUAUAGUGCCCAGUCUCUCUCUCCUAUUUUUUAUUUUUUUAAGCUAGACUCAAGGGUGUGUGGUAUUUCGCUUUUUAGUACAUUACUUUACUGGAAGCUUAAAAUUUGCUUUGGAAUUCUCGGGUGCCAA | 0.575
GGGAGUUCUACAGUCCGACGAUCGUGAAAAGUCAUCACAAGACUCCUAGGUCAUUAUAAGAAUUAAAGAUUUGAAAGAGUAAUAUAAUAUAAGCUUGGUGAGGCUUUGUGGCUUUUUGUUCUACUCUUCCCAUUGGAAUUCUCGGGUGCCAA | 1.09
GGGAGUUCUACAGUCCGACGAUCUAACCCUUCACAAAAGAAAAGAUCACCAAAAGGGGUUGUAUAUUUGAAAACAUUAUACUUGUAUCCAUUUUCCUCUGUUCAACAAAGAGAAAGUUCAAGUUAGCUUCAGUUGGAAUUCUCGGGUGCCAA | 0.32
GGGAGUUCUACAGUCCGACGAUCAAUAAAUUCCCAACUUCUCUUGCUUUCUAUGCUGUUUGUAGUGAAAUAAUAGAAUGAGCACCCAUUCCAAAGCUUUAUUACCAGUGGCGUUGUUGCAUGUUUGAAAUGAGUGGAAUUCUCGGGUGCCAA | 13.9
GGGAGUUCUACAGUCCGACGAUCAUCUUCACUACCAUUCGCCCUUUCUGCUGAAGGAAUGGUGACGUGUUCCCAGGAGAACUGGGAGGCACAGGAUUCCCAGCACCCUUGCUGCCUCAUUGGGGAAGUUGGCCUGGAAUUCUCGGGUGCCAA | 0.293
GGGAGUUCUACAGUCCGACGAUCGCUUGGACAAUCUUAGUAUUUACACGUGAGAUGAAAUGAAGAGUCCCGUGUGCUGCUCUGUGUGCAAGAGUACUGACCGCUCUGCUGAACCUUCAUGUCUUUUCUAGUGGUGGAAUUCUCGGGUGCCAA | 0.442
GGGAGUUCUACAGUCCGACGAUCUAUGCAAUAUUUCAUCUGUUUAAUUUUCUAACUCUGUAUUGUUCCUAAAGACGGAUGAAUGAGUCUCUGUGGUGUUGCCUGCUCAUUGUGCAUACCCUUGGUAGACAUUUUGGAAUUCUCGGGUGCCAA | 0.595
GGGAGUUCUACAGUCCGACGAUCUUGCAGAGUUCUUACCAUUCCUGUAAAUGUUUUGACUUGUUGCAGAAAUUCCUAUCUACUUUAUUAAGCAGUAUUGAUCUGACUGUGGAAACAUCCUCUCACUUGCAUUCUGGAAUUCUCGGGUGCCAA | 0.605
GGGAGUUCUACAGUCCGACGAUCAAACCCCCCUCUAUUAUGUGGGCCUAUGUACAAAUGUGGGUAUCCGCUGGUUUUGUUGUCUACGGGGAGCCCCAGGAUUCAGCUGUGGGUCUCUUUGAGUAUCUGGAAAUUGGAAUUCUCGGGUGCCAA | 0.386
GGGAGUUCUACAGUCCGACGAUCUUUAUAAAGCUUGAGUUAUGUAAGAUUUAAAUAAAAGUUUGCUACCAAGAUGAUUGCCUUAUUGAAUAGGUCACUACUAAGGCCCUUAAGUGUUGAUACCUGCCAUGUGUUGGAAUUCUCGGGUGCCAA | 0.609

Sample 3
Target: Prothrombin, mature alpha-thrombin (F2, Homo sapiens, UniProt P00734)
Technique: aptamer microarray, sandwich
Form: DNA with 2'F-ANA
Sample: in vitro
Tested at: 200 nM
Notes: whole 15-mer aptamer, many near background
Added: Cy3 exosite-II aptamer, 400 nM
Reading: higher = stronger binding
Sequence: GGTTGGTGTGGTTGG
Modification | mean fluorescence intensity [a.u.]
2'F-ANA at 2 3 5 7 8 9 10 11 12 13 14 | 71.2
2'F-ANA at 1 3 5 7 9 14 15 | 47.7
2'F-ANA at 1 2 3 4 7 9 10 12 15 | 74.4
2'F-ANA at 1 5 7 9 13 15 | 47.8
2'F-ANA at 1 3 8 10 11 13 14 | 122
2'F-ANA at 1 2 7 8 11 12 13 14 15 | 72.2
2'F-ANA at 1 2 3 6 9 11 | 222
2'F-ANA at 2 4 5 6 7 8 9 10 12 13 | 52.9
2'F-ANA at 1 2 9 10 13 | 51.1
2'F-ANA at 5 8 11 12 15 | 114
2'F-ANA at 3 7 8 13 15 | 1060
2'F-ANA at 2 4 5 6 9 11 | 119
2'F-ANA at 1 7 8 9 10 13 14 15 | 49.2
2'F-ANA at 3 7 8 10 11 13 14 | 411
2'F-ANA at 1 4 5 6 8 13 15 | 51.3
2'F-ANA at 3 4 5 6 7 9 10 11 13 15 | 65.6
2'F-ANA at 1 4 6 7 10 12 13 14 | 43.8
2'F-ANA at 1 3 4 9 11 14 | 61
2'F-ANA at 1 2 4 8 10 11 12 13 | 61.8
2'F-ANA at 4 5 7 8 13 15 | 53.7
2'F-ANA at 2 3 4 5 6 7 10 13 | 100
2'F-ANA at 3 4 6 7 8 11 12 15 | 744
2'F-ANA at 1 2 4 6 8 9 11 14 | 52.4
2'F-ANA at 1 6 7 10 13 14 15 | 45.4
2'F-ANA at 4 5 8 10 11 12 14 | 49.3

Sample 4
Target: RING finger protein unkempt homolog, zinc fingers 1-6, SBP tag (UNK, Homo sapiens, UniProt Q9C0B0, residues 30-357)
Chain of UniProt Q9C0B0 (30-357, looked up): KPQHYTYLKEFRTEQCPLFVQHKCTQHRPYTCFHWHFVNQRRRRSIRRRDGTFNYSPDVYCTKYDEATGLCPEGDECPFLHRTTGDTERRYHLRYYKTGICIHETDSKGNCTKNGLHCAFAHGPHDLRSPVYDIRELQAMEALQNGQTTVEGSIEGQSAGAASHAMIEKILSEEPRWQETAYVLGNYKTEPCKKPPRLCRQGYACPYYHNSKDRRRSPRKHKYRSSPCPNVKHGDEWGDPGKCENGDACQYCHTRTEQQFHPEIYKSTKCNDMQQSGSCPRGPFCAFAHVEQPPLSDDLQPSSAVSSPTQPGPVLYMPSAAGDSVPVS
Technique: RNA Bind-n-Seq
Form: RNA
Sample: in vitro
Tested at: 100 nM
Notes: RNA with constant flanks, vertebrate orthologous sites, ends assumed
Baseline: input RNA pool
Reading: higher = stronger binding
Sequence | bound/input enrichment [ratio]
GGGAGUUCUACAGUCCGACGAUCGCAAAAGGCCAAAUUCCCUCCUCCCUUCUACUGCUUCUACCAACUGGAAGCACAGAAAACUAGAAUUUCAUUUCAUUUUUUUUUUUAAAAAAAAAAUUGAUUUCUCGUAACAUCCAAUAGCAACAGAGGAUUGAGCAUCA | 0.779
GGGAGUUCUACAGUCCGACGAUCAACCUCCUGAACGUCUAGCUUUCAAGUUGUGGCUGUUUUAAAUACUGGUUUUAUUUUCUUUAGAGUUUUACCCUGUUUCCUAUCUUCUUCUCCCCUGUUCCCAAGGUUUGACUCAUGGGUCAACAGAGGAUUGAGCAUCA | 0.92
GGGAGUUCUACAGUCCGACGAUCUCAUUGUACUGCAAAAAUCAUCCUCGUUCUAAAUUAGCCACAGUGAUAACUUGUCUGCAGUAGUAGAGGCAUUUACCUUUUAAAUUAUCUGCUUUGUCUGAUACCUGAAACACAUCAAAACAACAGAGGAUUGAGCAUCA | 0.717
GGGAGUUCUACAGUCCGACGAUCUUUUUACAAUCUUCUACUUAAACUGGUAUUUUCAAACAAUAGGAAAGUUUUUUUUUACAGUUUAGUAUCUGGUUUCUACAUGGAAGACUAAACUCAUGCUUAUAGCUAAAUGUGGUCUUUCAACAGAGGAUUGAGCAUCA | 0.38
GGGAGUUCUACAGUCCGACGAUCAGAACUCUUGGAGUCUUAGAUGUUAUAAAAUUACAUAUAUGUCUGAAUUGUAAGAGUUAUCAGCACAGUUUUUUUAUGCACUUGUUUUGGGUACAAGGCAUUUCUGAAAUUUUAUAAACACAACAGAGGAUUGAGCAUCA | 0.162
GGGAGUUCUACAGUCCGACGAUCUUCAGGCACAACUGACUGGUUCACAGCACUCCUUACAUAGUUAUCUGUCAAAUGCAAGUGUAGUUAAUUUUCAGGAAACAACCAGGCAGUCAUCUUUAUCCUGUAGCCCAAUUGGAGAUUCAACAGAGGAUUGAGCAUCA | 1.66
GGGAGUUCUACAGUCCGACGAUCCUUUUAAUCGAUUAUGUCUGUAAAUGUAUAUUGAGAGAAUUGAAGUAUUUAUAAACAGAGUGAUUUAUUUAAGGAAAAGCUCAUUCCUCUUUCAUAUGGUGGUCUGUGUUAAUUCUCUUUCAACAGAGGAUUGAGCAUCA | 0.811
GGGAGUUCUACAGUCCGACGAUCGCAAUGAAAAAACAGCCCUCCUCCCAGCCCCCAUUUCACUAGGAGAUACAAACAUUACCAUAGAAGAACAAUUUAACUCAAUAAAUUUAUCUUUUCAGGAUGAUCCAGACUCCAGUACCACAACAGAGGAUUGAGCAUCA | 1.21
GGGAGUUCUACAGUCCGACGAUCUUACAGUCAUUGAUGGACUCUAUUUUUUUAUUAUUACUUGGACCUUGGUCGUUUUUAUACUAGCAAAAUGUCUUGUUUUGAUUUGUGUUUUUUUUGGGGGGGGGUGGGGAGGGAGUGAAUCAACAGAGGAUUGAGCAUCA | 2.26
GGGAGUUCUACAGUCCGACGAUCUGUACUAGCGUCAUACCAGCAUAUUACCUAUUUAAACUAUGUGCACAGCUUAAAAAAGUUUAGUUUUUCUUUUUGAGGAAAAGGAAAAACAUUUCACCCGGAUUCUAAAUGAAGCUACAUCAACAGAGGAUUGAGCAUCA | 1.01
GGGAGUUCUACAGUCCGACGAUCAUCCCAGUUUGUAUGCACAUUAUUCACAUUCCUAUCUGUUGUGUUUGCAGAAAUGACAUUUUUACCUUUUCUAAGGGUUAAUUUUUGAUUUUCAUAUUAUUUGGUUGCAUGAAGUUGCCCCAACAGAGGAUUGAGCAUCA | 0.282

Repeated from above (sample 3):
Modification | mean fluorescence intensity [a.u.]
2'F-ANA at 5 8 11 12 15 | 114
2'F-ANA at 3 7 8 13 15 | 1060
2'F-ANA at 2 4 5 6 9 11 | 119
2'F-ANA at 1 7 8 9 10 13 14 15 | 49.2
2'F-ANA at 3 7 8 10 11 13 14 | 411
2'F-ANA at 1 4 5 6 8 13 15 | 51.3
2'F-ANA at 3 4 5 6 7 9 10 11 13 15 | 65.6
2'F-ANA at 1 4 6 7 10 12 13 14 | 43.8
2'F-ANA at 1 3 4 9 11 14 | 61
